# Published values collected from several papers.
# Compare with care: the assays were run in different laboratories. “And” joins repeats or separate records; there may be more than shown. Numbers after ± are the reported error.
Structure (SMILES),cell line,assay,system,setting,scale,quantity,result
CCc1c(-c2ccccc2)c(-c2ccccc2)nn1-c1ccccc1-c1cccc(OCC(=O)O)c1,mouse osteoclasts,"RT-qPCR, refers to: Pik3cb",,"concentration not given, unit not given",reference: bone marrow macrophages,mRNA level,0.753 and 0.801 and 0.796
Cc1c(C)c2c(c(C)c1O)CCC(C)(COc1ccc(CC3SC(=O)NC3=O)cc1)O2 (stereo not drawn),"hepatocytes, iPSC-derived, line L2","cell viability, RealTime-Glo MT",,"72 h, differentiation day 23",,IC50,42 µM
Cn1cc(NC(=O)c2cc(NC(=O)c3ccc(/C=C/c4cnc5ccccc5c4)cc3)cn2C)cc1C(=O)NCCN1CCOCC1,HEK293T ATF4-FLuc reporter,"ATF4 reporter gene, activator, luciferase reporter",,,,EC50,> 9.96 µM
CCCCCCCCCCC(=O)O,THP-1,pyroptotic LDH release,,"2 µM, 40 min, added: LPS then nigericin",,inhibition,-1.52%
O=S(=O)(c1ccccc1)N(CC(F)(F)F)c1ccc(C(O)(C(F)(F)F)C(F)(F)F)cc1,HEK293T ATF4-FLuc reporter,"ATF4 reporter gene, activator, luciferase reporter",,,,EC50,4.82 µM
CC(=O)c1ccc(O)c(C(=O)O)c1,THP-1,pyroptotic LDH release,,"2 µM, 40 min, added: LPS then nigericin",,inhibition,0.998%
CCNc1ncn(Cc2ccc(OC)c(OC3CCCC3)c2)c2nc(C(C)C)nc1-2,HEK293T ATF4-FLuc reporter,"ATF4 reporter gene, activator, luciferase reporter",,,,EC50,> 9.96 µM
O=C(O)CC(O)C(=O)O (stereo not drawn),THP-1,pyroptotic LDH release,,"2 µM, 40 min, added: LPS then nigericin",,inhibition,0.799%
O=C(/C=C/C=C/C=C/C1CCCCC1)NC1=C[C@@](O)(/C=C/C=C/C=C/C(=O)NC2=C(O)CCC2=O)[C@@H]2O[C@@H]2C1=O,HEY A8,CellTiter-Glo,,78 h,,GI50,23.1 µM
COc1cc(CCC(=O)O)ccc1O,Caco-2/THP-1 co-culture,,,"concentration not given, added: LPS 250 ng/mL",,kynurenine level,148 ± 6.9 % change
COc1cc(/C=C/C(=O)N2CCC=CC2=O)cc(OC)c1OC,MDA-MB-468,"quantitative RT-PCR, refers to: NOS2",,"30 µM, 8 h",reference: untreated cells,mRNA level,1080 ± 47.7%
CC(=O)OCC[N+](C)(C)C,THP-1,pyroptotic LDH release,,"2 µM, 40 min, added: LPS then nigericin",,inhibition,-1.32%
C[C@H](CS)C(=O)N1CCC[C@H]1C(=O)O,HUVEC,western blot,,"10, 100, 1 µM, added: angiotensin II",,Nrf2 protein level,19.8 % restoration
C[C@@H]1CN(C(=O)c2ccc(NC(=O)c3cc(O[C@H](C)c4c(Cl)ccc(F)c4Cl)c(N)nn3)cc2)C[C@H](C)N1,Ba/F3 EML4-ALK variant 1 L1196Q,cell viability,,,,Emax,100%
CC/C(=N\NC(=O)NCc1cccc(O)c1)c1ccc(O)c(C)c1O,SK-OV-3,"microarray, refers to: KRTAP2-3",3D culture in gellan gum,"10 µM, 24 h",reference: DMSO,log ratio of mRNA level,5.3
CCCN1CCN(c2ccc3nc(-c4ccc5nc(-c6cc(OC)ccc6OC)[nH]c5c4)[nH]c3c2)CC1,RXF 393,SRB,,"10 µM, 48 h",,growth percent,93.3%
N=C(CCl)NCCC[C@H](NC(=O)c1ccccc1)C(N)=O,MRL/lpr mouse neutrophils,,,"concentration not given, 1 h, added: PMA",,H2O2 production,no inhibition
Cc1cccc(-c2[nH]c(CNc3ccccc3F)nc2-c2ccc3ncnn3c2)n1,bone marrow CD138+ myeloma cells,XTT,,"1.4 µM, phenol red-free RPMI",,viability,12%
Nc1ccc(Cl)cc1Cl,THP-1,pyroptotic LDH release,,"2 µM, 40 min, added: LPS then nigericin",,inhibition,47%
O=C(C[C@@H](C(F)F)n1ccc(F)n1)N1CCC(O)(Cn2cnc3c(cnn3-c3ccc(F)cc3)c2=O)CC1,CHP-212 parental,annexin V/PI flow cytometry,,"0.3 µM, 48 h",,early apoptotic cells,25.6% and 28.6% and 29%
COc1cccc2c1C(=O)c1c(O)c3c(c(O)c1C2=O)C[C@@](O)(C(=O)CO)C[C@@H]3O[C@H]1C[C@H](N)[C@H](O)[C@H](C)O1,"SAOS-2, A549",cytotoxicity,,,reference: SAOS-2 over A549,selectivity ratio,7 fold
CCn1c(=O)/c(=C2\Sc3ccccc3N2C)s/c1=C/c1cccc[n+]1CC,HEK293T ATF4-FLuc reporter,"ATF4 reporter gene, activator, luciferase reporter",,,,EC50,3.89 µM
CC(C)(C)NC(=O)c1cncn1C1CCN(c2ccc(-c3nnc(C(F)(F)F)o3)cn2)CC1,HDMEC,"qPCR, refers to: TSC22D1 isoform 3",,"concentration not given, unit not given",reference: DMSO,mRNA level,1.07
CCn1cc(-c2cc(Cn3ccoc3=N)cc3c2CCN([C@@H](C)c2cc(OC)ccn2)C3=O)c(C(F)(F)F)n1,MDST8,"cell growth, inhibitor",,120 h,,EC50,1.43 µM
O=c1c(O)c(-c2ccc(O)cc2)oc2cc(O)cc(O)c12,"coculture, Caco-2, THP-1",ELISA,,"50 ng/mL, 8 h, added: LPS, IFNγ, ATP",reference: untreated control,IL-1β level,8.8 ± 1.1 fold change
C[C@]12CC[C@H](O)CC1=CC[C@@H]1[C@@H]2CC[C@]2(C)C(c3cccnc3)=CC[C@@H]12,C4-2B,"cell growth, MTT",,,,GI50,12.6 ± 0.16 µM
CCn1cc(-c2cc(Cn3ccnc3)cc3c2CCN([C@H](c2cc(OC)ccn2)C2CC2)C3=O)c(C(F)(F)F)n1,NUGC-3,"cell growth, inhibitor",,120 h,,EC50,0.00147 µM
Clc1ncnc2nc[nH]c12,THP-1,pyroptotic LDH release,,"2 µM, 40 min, added: LPS then nigericin",,inhibition,20.3%
Cn1c(Nc2nc3ccc(C(F)(F)F)cc3s2)nc2cc(C(=O)NCCOCCO)ccc21,SH-SY5Y,"RNA-seq, refers to: SGK1 mRNA",,"5 µM, 5 h",reference: untreated cells,fold change,2.28
C=C[C@@H]1C[C@]1(NC(=O)[C@@H]1C[C@@H]2CN1C(=O)[C@H](C(C)(C)C)NC(=O)O[C@@H]1C[C@H]1CCCCCc1nc3ccc(OC)cc3nc1O2)C(=O)NS(=O)(=O)C1CC1,THP-1,pyroptotic LDH release,,"2 µM, 40 min, added: LPS then nigericin",,inhibition,47.9%
COc1cc(/C=C/C(=O)O)ccc1O,"coculture, Caco-2, THP-1",ELISA,,"100 ng/mL, 8 h, added: LPS, IFNγ, ATP",reference: untreated control,IL-1β level,10.1 ± 1.5 fold change
CCCCc1nc2cc(/C=C/C(=O)NO)ccc2n1CCN(CC)CC,HEK293T ATF4-FLuc reporter,"ATF4 reporter gene, activator, luciferase reporter",,,,EC50,0.447 µM
COc1cnc2cccc(N3CCc4c(cc(Cn5ccnc5C)cc4-c4cn(C)nc4C(F)(F)F)C3=O)c2c1,COV434,"cell growth, inhibitor",,120 h,,EC50,> 30 µM
Cc1cc(Nc2ncc(Cl)c(Nc3ccccc3S(=O)(=O)C(C)C)n2)c(OC(C)C)cc1C1CCNCC1,CLB-BAR,"phosphoproteomics LC-MS/MS, refers to: NEK9 phosphorylation",,"200 nM, 60 min",reference: untreated,log2 fold change,-2.97
CCCC(=O)[O-].[Na+],"coculture, Caco-2, THP-1",ELISA,,"500 ng/mL, 8 h, added: LPS, IFNγ, ATP",reference: untreated control,IL-1β level,2.9 ± 2.4 fold change
CC(=O)OCC1=C(C(=O)O)N2C(=O)[C@@H](NC(=O)Cc3cccs3)[C@H]2SC1,THP-1,pyroptotic LDH release,,"2 µM, 40 min, added: LPS then nigericin",,inhibition,41.5%
C/C=C(/C)C(=O)O[C@H]1C(C)=C[C@]23C(=O)[C@@H](C=C(CO)[C@@H](O)[C@]12O)[C@H]1[C@@H](C[C@H]3C)C1(C)C,HEK293T ATF4-FLuc reporter,"ATF4 reporter gene, activator, luciferase reporter",,,,EC50,0.0189 µM
Cc1cc(C)n(-c2nc(-c3ccc(Cl)cc3)c3c(NC(=O)c4ccccc4)nnc-3[nH]2)n1,RXF 393,SRB,,"10 µM, NCI60 single-dose screen",reference: untreated,cell growth,103%
CN(C)C(=O)n1cc(C(=O)c2ccn3c2CS[C@@H]3c2cccnc2)c2ccc(-c3ccc(F)cc3)cc21,HEK293T ATF4-FLuc reporter,"ATF4 reporter gene, activator, luciferase reporter",,,,EC50,6.4 µM
Cn1cc(-c2ccc(-c3cncc(Cl)c3N3CCC4(CCNC4=O)CC3)cc2)cn1,COLO 205,"gene expression, microarray, refers to: PDE4A mRNA",,"concentration not given, 2 h",reference: untreated cells,log2 fold change,2.21
CC(C)(C)Cn1c(N)nc2ccc(-c3[nH]c(C(C)(C)C)nc3-c3ccc(F)cc3)nc21,HEK293T ATF4-FLuc reporter,"ATF4 reporter gene, activator, luciferase reporter",,,,EC50,5.24 µM
COc1ccc2c(N(C)c3ccc(/C(C)=N/OCCN)cc3)c3c(Cl)coc3nc2c1,NE_1.8,trypan blue exclusion,,"1 µM, 72 h, steroid-reduced conditions",,inhibition of cell proliferation,> 85%

# For quick reference, copied from above:
Structure (SMILES),cell line,assay,system,setting,scale,quantity,result
Clc1ncnc2nc[nH]c12,THP-1,pyroptotic LDH release,,"2 µM, 40 min, added: LPS then nigericin",,inhibition,20.3%
Cn1c(Nc2nc3ccc(C(F)(F)F)cc3s2)nc2cc(C(=O)NCCOCCO)ccc21,SH-SY5Y,"RNA-seq, refers to: SGK1 mRNA",,"5 µM, 5 h",reference: untreated cells,fold change,2.28
C=C[C@@H]1C[C@]1(NC(=O)[C@@H]1C[C@@H]2CN1C(=O)[C@H](C(C)(C)C)NC(=O)O[C@@H]1C[C@H]1CCCCCc1nc3ccc(OC)cc3nc1O2)C(=O)NS(=O)(=O)C1CC1,THP-1,pyroptotic LDH release,,"2 µM, 40 min, added: LPS then nigericin",,inhibition,47.9%
